# Results from different studies.
# Each line is one published result; not all experiments were run side by side.
SMILES,test,system,conditions,how to read,quantity,value
Cc1nnc2n1-c1ccc(Cl)cc1C(c1ccccc1)=NC2,,human female,day 22,relative to: day 0,Tmax change,24.5%
C[C@]1(CO)Cc2ncn(-c3ccc(C#N)c(Cl)c3)c2C(=O)O1,,"human, plasma","2 mg single dose, median",,tmax,0.5 h
C=C(C)[C@@H]1CC[C@]2(NCCN3CCS(=O)(=O)CC3)CC[C@]3(C)[C@H](CC[C@@H]4[C@@]5(C)CC=C(C6=CC[C@@](COc7ncccc7C#N)(C(=O)O)CC6)C(C)(C)[C@@H]5CC[C@]43C)[C@@H]12,,"human, fed","oral, 100 mg powder in bottle, median",,Tmax,9 h
N.N.O=C([O-])C1(C(=O)[O-])CCC1.[Pt+2],item: non-protein-bound platinum,"human, plasma ultrafiltrate","dose not given, median",,Tmax,0.6 h
COc1ccc2c(c1)[C@]13CCCC[C@@H]1[C@H](C2)N(C)CC3,,human female,day 22,relative to: day 0,Tmax change,22.4%
C[C@H](NC(=O)c1c(C(F)F)nn(C)c1Oc1cccc(C(F)(F)F)c1)c1ccc(C(=O)O)cc1,,"human, plasma","125 mg, cycle 1 day 8, median",,Tmax,4.7 h
Cn1nc(NS(C)(=O)=O)c2c(Cl)ccc(-n3c([C@H](Cc4cc(F)cc(F)c4)NC(=O)Cn4nc(C(F)F)c5c4C(F)(F)[C@@H]4C[C@H]54)nc4nc(OCCC(F)(F)F)ccc4c3=O)c21,,"human, plasma","oral, 200 mg single dose, tablet, median",,tmax,24 h
O=C(O)C(O)(c1cccs1)c1cccs1,item: metabolite,"human, plasma","oral, 10 mg once daily, 5 days, median",,Tmax,5.5 h
CC(=O)c1c(C)c2cnc(Nc3ccc(C4CCN(CCS(C)(=O)=O)CC4)cn3)nc2n(C2CCCC2)c1=O,,"human patients, plasma","oral, 75 mg twice daily, day 1 single dose, added: fulvestrant",,Tmax,1.25 h
CNC(=O)n1ccc2cc(Oc3ccnc(NC(=O)c4ccc(C5CCN(CCO)CC5)cc4)c3)c(OCCOC)cc21,,"healthy human, plasma","oral, 35 mg, added: high-fat meal",relative to: fasted,tmax delay,~1 h
COc1ccc(F)cc1C(=O)NCc1ccc(-c2nn([C@@H](C)C(F)(F)F)c(N)c2C(N)=O)cc1,,"human, plasma","oral, 200 mg once daily, added: oral midazolam",,tmax,3 h
OCc1ncc2n1-c1ccc(Cl)cc1C(c1ccccc1F)=NC2,,"human, plasma","7.5 mg midazolam, day 12, median, added: amenamevir 400 mg",,Tmax,0.5 h

# Repeated from above:
SMILES,test,system,conditions,how to read,quantity,value
CNC(=O)n1ccc2cc(Oc3ccnc(NC(=O)c4ccc(C5CCN(CCO)CC5)cc4)c3)c(OCCOC)cc21,,"healthy human, plasma","oral, 35 mg, added: high-fat meal",relative to: fasted,tmax delay,~1 h
